Published values from different studies.
Protocols differ between the studies behind these lines. “And” joins repeats or separate records; there may be more than shown.
CSNK1A1/CRBN: Cereblon/Casein kinase I alpha (CSNK1A1/CRBN, Homo sapiens, UniProt P48729+Q96SW2)
Chain of UniProt Q96SW2 (whole entry, looked up): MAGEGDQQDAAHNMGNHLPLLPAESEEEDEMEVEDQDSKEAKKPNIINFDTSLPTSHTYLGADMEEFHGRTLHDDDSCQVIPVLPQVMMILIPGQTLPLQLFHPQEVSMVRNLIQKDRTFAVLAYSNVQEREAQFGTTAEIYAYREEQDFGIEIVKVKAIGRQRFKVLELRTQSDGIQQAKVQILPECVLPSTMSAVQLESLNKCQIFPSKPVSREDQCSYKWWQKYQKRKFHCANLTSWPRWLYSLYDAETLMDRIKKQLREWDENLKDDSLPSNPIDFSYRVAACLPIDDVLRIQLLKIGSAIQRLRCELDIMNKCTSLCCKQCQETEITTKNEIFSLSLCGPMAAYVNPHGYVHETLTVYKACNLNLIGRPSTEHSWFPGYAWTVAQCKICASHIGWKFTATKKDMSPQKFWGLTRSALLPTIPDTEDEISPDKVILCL
Chain of UniProt P48729 (whole entry, looked up): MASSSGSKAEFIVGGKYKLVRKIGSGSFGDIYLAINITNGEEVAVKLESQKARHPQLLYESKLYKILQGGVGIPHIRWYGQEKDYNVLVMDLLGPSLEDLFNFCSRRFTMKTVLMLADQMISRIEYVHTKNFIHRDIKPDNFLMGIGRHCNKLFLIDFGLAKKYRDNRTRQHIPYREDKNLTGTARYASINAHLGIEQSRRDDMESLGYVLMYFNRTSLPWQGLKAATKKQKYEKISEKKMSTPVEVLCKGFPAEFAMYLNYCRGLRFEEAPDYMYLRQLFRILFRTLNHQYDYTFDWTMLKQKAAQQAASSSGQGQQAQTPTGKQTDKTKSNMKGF
DPP9: Dipeptidyl peptidase 9 (DPP9, Homo sapiens, UniProt Q86TI2)
Chain of UniProt P35030 (whole entry, looked up): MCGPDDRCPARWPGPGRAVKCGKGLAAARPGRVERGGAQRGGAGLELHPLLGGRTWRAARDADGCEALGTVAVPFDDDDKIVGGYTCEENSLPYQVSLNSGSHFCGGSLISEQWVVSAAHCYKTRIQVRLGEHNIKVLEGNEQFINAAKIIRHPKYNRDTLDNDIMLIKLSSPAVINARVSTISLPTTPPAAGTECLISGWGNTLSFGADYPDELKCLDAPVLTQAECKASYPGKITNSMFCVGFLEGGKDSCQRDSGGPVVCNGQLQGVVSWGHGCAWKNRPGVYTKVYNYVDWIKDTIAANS
Chain of UniProt Q86TI2 (whole entry, looked up): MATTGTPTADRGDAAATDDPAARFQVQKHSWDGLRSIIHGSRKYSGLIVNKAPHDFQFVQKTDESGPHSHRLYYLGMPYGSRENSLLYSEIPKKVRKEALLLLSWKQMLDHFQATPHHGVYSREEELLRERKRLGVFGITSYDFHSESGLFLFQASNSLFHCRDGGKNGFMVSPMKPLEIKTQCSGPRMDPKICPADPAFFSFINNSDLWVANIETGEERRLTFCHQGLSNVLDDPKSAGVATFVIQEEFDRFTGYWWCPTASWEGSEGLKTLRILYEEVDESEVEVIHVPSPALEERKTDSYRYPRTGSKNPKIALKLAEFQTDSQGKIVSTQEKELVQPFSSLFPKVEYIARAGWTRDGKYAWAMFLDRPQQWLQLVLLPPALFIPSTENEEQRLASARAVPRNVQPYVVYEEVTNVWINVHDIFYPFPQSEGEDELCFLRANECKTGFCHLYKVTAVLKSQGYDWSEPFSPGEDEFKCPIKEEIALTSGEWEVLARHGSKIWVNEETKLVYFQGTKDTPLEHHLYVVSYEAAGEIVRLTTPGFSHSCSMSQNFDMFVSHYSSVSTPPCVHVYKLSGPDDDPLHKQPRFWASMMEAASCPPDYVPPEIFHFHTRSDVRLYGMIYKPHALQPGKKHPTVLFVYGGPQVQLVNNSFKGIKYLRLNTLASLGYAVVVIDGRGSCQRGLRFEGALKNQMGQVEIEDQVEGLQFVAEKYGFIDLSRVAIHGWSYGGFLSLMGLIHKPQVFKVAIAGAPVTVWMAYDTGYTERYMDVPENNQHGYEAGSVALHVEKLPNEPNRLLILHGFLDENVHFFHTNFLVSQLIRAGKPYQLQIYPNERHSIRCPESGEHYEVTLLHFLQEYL
Chain of UniProt Q13526 (whole entry, looked up): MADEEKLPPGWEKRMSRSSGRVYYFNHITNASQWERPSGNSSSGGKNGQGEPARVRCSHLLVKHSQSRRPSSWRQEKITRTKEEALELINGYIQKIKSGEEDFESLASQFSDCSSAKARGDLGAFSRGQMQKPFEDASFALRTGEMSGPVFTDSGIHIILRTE
Chain of UniProt Q06187 (whole entry, looked up): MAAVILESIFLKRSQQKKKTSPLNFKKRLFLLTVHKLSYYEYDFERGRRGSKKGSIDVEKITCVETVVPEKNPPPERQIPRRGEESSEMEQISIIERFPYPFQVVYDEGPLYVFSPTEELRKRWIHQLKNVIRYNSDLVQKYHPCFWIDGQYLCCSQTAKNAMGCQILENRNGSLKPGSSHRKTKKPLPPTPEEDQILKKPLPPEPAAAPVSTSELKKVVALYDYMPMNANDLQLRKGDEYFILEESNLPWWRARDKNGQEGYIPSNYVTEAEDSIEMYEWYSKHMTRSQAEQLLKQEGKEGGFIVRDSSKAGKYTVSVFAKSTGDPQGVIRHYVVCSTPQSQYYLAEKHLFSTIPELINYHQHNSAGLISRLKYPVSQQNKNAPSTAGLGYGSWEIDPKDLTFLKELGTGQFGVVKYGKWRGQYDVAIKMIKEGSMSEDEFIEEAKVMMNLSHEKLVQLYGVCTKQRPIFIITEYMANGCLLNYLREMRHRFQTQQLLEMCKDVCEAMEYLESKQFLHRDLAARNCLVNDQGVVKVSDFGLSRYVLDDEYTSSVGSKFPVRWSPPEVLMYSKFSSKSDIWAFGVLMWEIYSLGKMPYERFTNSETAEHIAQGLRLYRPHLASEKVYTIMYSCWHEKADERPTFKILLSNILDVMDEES
Chain of UniProt P43220 (whole entry, unmodified, looked up): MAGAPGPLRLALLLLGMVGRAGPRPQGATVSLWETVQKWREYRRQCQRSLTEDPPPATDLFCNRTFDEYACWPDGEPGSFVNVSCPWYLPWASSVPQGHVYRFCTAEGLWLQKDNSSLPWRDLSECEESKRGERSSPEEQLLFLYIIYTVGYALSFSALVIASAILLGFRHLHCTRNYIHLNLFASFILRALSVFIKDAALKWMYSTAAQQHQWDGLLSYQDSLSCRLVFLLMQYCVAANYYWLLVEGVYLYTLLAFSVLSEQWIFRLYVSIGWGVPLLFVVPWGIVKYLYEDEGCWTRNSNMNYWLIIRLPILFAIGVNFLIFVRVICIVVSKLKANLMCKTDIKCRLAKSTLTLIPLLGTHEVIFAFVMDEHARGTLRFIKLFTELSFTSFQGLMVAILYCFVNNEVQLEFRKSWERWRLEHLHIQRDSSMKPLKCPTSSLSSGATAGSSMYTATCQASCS

`Cc1nn(-c2cccc(N)c2)c(=O)c2cnc(Nc3ccc(N4CCNCC4)cc3)nc12` has an IC50 of > 10 µM (BTK (Homo sapiens, UniProt Q06187); kinase activity, inhibitor, SelectScreen kinase profiling).
`Cc1nc(-c2c[nH]c(C(=O)Nc3ncccc3O)c2)cs1` gave a Ki of 58.9 µM and 58.4 µM and 31.3 µM and 38.9 µM (Trypsin-3 (Homo sapiens, UniProt P35030); enzyme activity, inhibitor, mixed model kinetics; with: substrate Z-GPR-pNA).
`CCc1c(C(=O)Nc2ccc3c(c2)CN(C2CCC(=O)NC2=O)C3=O)[nH]c2c(CO)cccc12` (stereo not shown) has a DC50 of 0.0156 µM (CSNK1A1/CRBN; protein level, degrader, luciferase).
`CCC1(CC)C(=O)N(c2cccc(CN3CCN(Cc4ccc(Br)c5ccccc45)CC3)c2)C1=O` gave a Ki of > 2 µM (DPP9; enzyme activity, inhibitor, fluorescence).
For `COC1CN([C@H]2CC[C@H]([C@@]3(C)Oc4c(Cl)cc(C(=O)NCc5c(SC)cc(C)[nH]c5=O)c(C)c4O3)CC2)C1`, “log2 fold change” read 1.61 (RNA-seq, item: NBEA; human, whole blood; dose not given, 24 h; relative to: pretreatment baseline).
The DC50 of `CCc1c(C(=O)Nc2ccc3c(c2)CN(C2CCC(=O)NC2=O)C3=O)[nH]c2c(NC(C)=O)cccc12` (stereo not shown) is reported as 0.0397 µM (CSNK1A1/CRBN; protein level, degrader, luciferase).
For `CCCC1(CC)C(=O)N(c2cccc(CN3CCN(Cc4ccc(Br)cc4)CC3)c2)C1=O`, the Ki was 1.26 µM (DPP9; enzyme activity, inhibitor, fluorescence).
`COc1cc(C2C(NC(=O)c3ccc(NC(=O)OC(C)(C)C)cc3)(C(=O)O)C(c3ccc(OC(=O)c4cccs4)c(OC)c3)C2(NC(=O)c2ccc(NC(=O)OC(C)(C)C)cc2)C(=O)O)ccc1OC(=O)c1cccs1` (stereo not shown) has an EC50 of 0.0282 µM (GLP1R (Homo sapiens, UniProt P43220, Q140A); cAMP, agonist).
For `NC(=O)[C@H](Cc1c[nH]c2ccccc12)NC(=O)[C@@H]1CCCCN1C(=O)[C@H](Cc1c[nH]c2cc(Cl)ccc12)NC(=O)CCl`, the DC50 was ~0.5 µM (PIN1 (Homo sapiens, UniProt Q13526); protein degradation, degrader; human cancer cell lines; 24 h).
`Cc1ncsc1-c1ccc(C(C)NC(=O)C2CC(O)CN2C(=O)C(NC(=O)CCCCCCCCCCN2CCCC(Nc3ncc(Cl)c(Nc4ccccc4S(=O)(=O)C(C)C)n3)C2)C(C)(C)C)cc1` (stereo not shown) — result for “log2 fold change”: -1.01 (22Rv1; RNA-seq, item: RGP1 mRNA; concentration not given; relative to: DMSO).

Some of these lines once more:
`COc1cc(C2C(NC(=O)c3ccc(NC(=O)OC(C)(C)C)cc3)(C(=O)O)C(c3ccc(OC(=O)c4cccs4)c(OC)c3)C2(NC(=O)c2ccc(NC(=O)OC(C)(C)C)cc2)C(=O)O)ccc1OC(=O)c1cccs1` (stereo not shown) has an EC50 of 0.0282 µM (GLP1R (Homo sapiens, UniProt P43220, Q140A); cAMP, agonist).
For `CCCC1(CC)C(=O)N(c2cccc(CN3CCN(Cc4ccc(Br)cc4)CC3)c2)C1=O`, the Ki was 1.26 µM (DPP9; enzyme activity, inhibitor, fluorescence).
